Published values from different studies.
Compare with care: the assays were run in different laboratories. ± marks the error that the study gave.

SMILES	assay	test system	conditions	scale	endpoint	result
N#Cc1ccc2c(c1)[C@H]1CCCN(C(=O)c3ccc4[nH]cnc4c3)[C@H]1C2		human, urine	160 mg, 24 h, day 1 over day -1	baseline: placebo and baseline	total urinary corticosteroids	64.3 % change
O=C(O)CNC(=O)Cc1ccccc1		ventricular cardiomyocytes, C57BL/6 mouse	dose not given, 0.184 s		sarcomere length	1.62 µm
CC(=O)O[C@@]12CO[C@@H]1C[C@H](O)[C@@]1(C)C(=O)[C@H](O)C3=C(C)[C@@H](OC(=O)[C@H](O)[C@@H](NC(=O)OC(C)(C)C)c4ccccc4)C[C@@](O)([C@@H](OC(=O)c4ccccc4)[C@H]21)C3(C)C	Western blot	male NRG mouse, CWR22Rv1 xenograft, tumour	dose not given, day 16		AR-V7 protein level	decreased
Cc1cc(C)c(CNC(=O)c2cc(Cl)c3c(c2C)O[C@@](C)([C@H]2CC[C@H](N(C)C)CC2)O3)c(=O)[nH]1		relapsed/refractory NHL patients, total incl. ATLL and CTCL	oral, dose not given		best overall response CR	25%
NC(=O)c1cnc2[nH]ccc2c1N[C@@H]1[C@@H]2CC3C[C@H]1C[C@@](O)(C3)C2	CD4+ naive T cells, flow cytometry	Caucasian humans, peripheral blood	60 mg single dose	baseline: baseline	percent change	-0.62%
C[C@@H](O)CCOC(=O)C[C@@H](C)O	item: Orn	human, plasma	60 min, log2-transformed values		metabolite level	6.28 ± 0.31 µmol/L
c1ccc(-c2n[nH]cc2-c2ccnc3ccccc23)nc1	kinase binding, competitor, MIB/MS competition, item: KSP1	Candida albicans cell lysate	100 nM	baseline: DMSO	log2 fold change	0.762
COc1ccc2c(c1)CN(Cc1ccc(C(=O)O)cc1)CCS2		exercised mdx mice	10 mg/kg, 4 weeks		forelimb grip strength	0.164 ± 0.007 kgf
N#Cc1ccc2c(-c3ccncc3)c(-c3ccc(F)cc3)nn2c1	kinase binding, competitor, MIB/MS competition, item: NIK1	Candida albicans cell lysate	100 nM	baseline: DMSO	log2 fold change	-0.277
C[C@@H](NC(=O)N1C(=O)[C@H](Cc2ccnc(N)c2)[C@H]1C(=O)O)C1CCCCC1		human, plasma	continuous intravenous infusion, 0.6 mg/kg/h, days 1 to 6 of 5-day infusion, median		time to maximum prothrombin time	84.3 h
N#Cc1ccc2c(c1)[C@H]1CCCN(C(=O)c3ccc4[nH]cnc4c3)[C@H]1C2	item: ACTH	human, Phase II trial	oral, 20 mg once daily, last treatment, HPA axis, mean		plasma level	11.6 pmol/L
Cc1cc(C)c(CNC(=O)c2cc(Cl)c3c(c2C)O[C@@](C)([C@H]2CC[C@H](N(C)C)CC2)O3)c(=O)[nH]1		relapsed/refractory ATLL patients	dose not given, modified ATLL criteria 2009		best overall response stable disease	7%
OC(CCN1CCCCC1)(c1ccccc1)C1CC2C=CC1C2 (centres unmarked)	resting-state EEG	healthy elderly humans	oral, 4 mg, eyes open, LS mean	baseline: baseline	change in EEG Beta1-power Fz-Cz	7.6%
O=C(O)C1=CC(=C(c2ccc(O)c(C(=O)O)c2)c2ccc(O)c(C(=O)O)c2)C=CC1=O	flow cytometry	C57BL/6J mouse MC-38 tumour, tumour-infiltrating lymphocytes	peritumoral, dose not given, 2 cycles	baseline: vehicle	CD4+ T cells in CD3+	decreased
CCCCC1C(=O)N(c2ccccc2)N(c2ccccc2)C1=O	carrageenan paw oedema	albino rat	oral, 100 mg/kg, 3 h		inhibition	65.1%
CC(C)NCC(O)c1ccc(O)c(O)c1 (centres unmarked)		ventricular cardiomyocytes, C57BL/6 mouse	dose not given, 0.228 s		sarcomere length	1.52 µm
COc1ccc(F)cc1C(=O)NCc1ccc(-c2nn([C@@H](C)C(F)(F)F)c(N)c2C(N)=O)cc1		relapsed/refractory CLL patients	dose not given, monotherapy		best overall response NE	4%
